Measurements gathered from unrelated publications.
Each line is one published result; not all experiments were run side by side. Several values in a cell are separate wells, animals, samples, runs or records. ± gives the spread as reported.

The IC90 of `O=C(c1cc(Cc2n[nH]c(=O)c3ccccc23)ccc1F)N1CC(CNC2CC2)C1` is reported as 8.99 µM (human bone marrow progenitor cells; colony formation; 14 days).
The selectivity index of `O=C1C=CC(=O)c2ccccc21` is reported as 1.14 (HepG2; MTT; reference: IC50 MRC-5 over IC50 HepG2).
With `CSCC[C@H](N)C(=O)N[C@@H](C)C(=O)N[C@@H](Cc1c[nH]c2ccccc12)C(=O)N[C@@H](Cc1c[nH]cn1)C(=O)N[C@@H](CC(=O)O)C(=O)N[C@@H](CC(=O)O)C(=O)N[C@@H](CCC(=O)O)C(=O)N[C@@H](CCC(=O)O)C(=O)N[C@@H](Cc1ccccc1)C(=O)N[C@@H](C)C(=O)N[C@@H](CCCNC(=N)N)C(=O)N[C@@H](CCCNC(=N)N)C(=O)N[C@@H](CCCNC(=N)N)C(=O)N[C@@H](CCCNC(=N)N)C(=O)NCCCCCC(=O)NCCCCC(NC(=O)CCCCCNC(=O)[C@H](CCCNC(=N)N)NC(=O)[C@H](CCCNC(=N)N)NC(=O)[C@H](CCCNC(=N)N)NC(=O)[C@H](CCCNC(=N)N)NC(=O)[C@H](C)NC(=O)[C@H](Cc1ccccc1)NC(=O)[C@H](CCC(=O)O)NC(=O)[C@H](CCC(=O)O)NC(=O)[C@H](CC(=O)O)NC(=O)[C@H](CC(=O)O)NC(=O)[C@H](Cc1c[nH]cn1)NC(=O)[C@H](Cc1c[nH]c2ccccc12)NC(=O)[C@H](C)NC(=O)[C@@H](N)CCSC)C(=O)NCCCCC(NC(=O)C(CCCCNC(=O)CCCCCNC(=O)[C@H](CCCNC(=N)N)NC(=O)[C@H](CCCNC(=N)N)NC(=O)[C@H](CCCNC(=N)N)NC(=O)[C@H](CCCNC(=N)N)NC(=O)[C@H](C)NC(=O)[C@H](Cc1ccccc1)NC(=O)[C@H](CCC(=O)O)NC(=O)[C@H](CCC(=O)O)NC(=O)[C@H](CC(=O)O)NC(=O)[C@H](CC(=O)O)NC(=O)[C@H](Cc1c[nH]cn1)NC(=O)[C@H](Cc1c[nH]c2ccccc12)NC(=O)[C@H](C)NC(=O)[C@@H](N)CCSC)NC(=O)CCCCCNC(=O)[C@H](CCCNC(=N)N)NC(=O)[C@H](CCCNC(=N)N)NC(=O)[C@H](CCCNC(=N)N)NC(=O)[C@H](CCCNC(=N)N)NC(=O)[C@H](C)NC(=O)[C@H](Cc1ccccc1)NC(=O)[C@H](CCC(=O)O)NC(=O)[C@H](CCC(=O)O)NC(=O)[C@H](CC(=O)O)NC(=O)[C@H](CC(=O)O)NC(=O)[C@H](Cc1c[nH]cn1)NC(=O)[C@H](Cc1c[nH]c2ccccc12)NC(=O)[C@H](C)NC(=O)[C@@H](N)CCSC)C(N)=O` (stereo partly drawn) the osteoclast formation was 35% (mouse C57BL/6 BMMs; 0.3 µM, 3 days, with: RANKL; reference: untreated control).
For `O=C(C[Se]C(=O)c1ccccc1)Nc1cccc(C(F)(F)F)c1`, the mean TGI was 16.3 µM (NCI60 colon subpanel; NCI60 five-dose screen).
For `O=C(O)c1ccc(-c2nc(-c3ccccc3Cl)c3sccn23)cc1`, the CD61-positive cells was 8.3% and 7.8% (K562; megakaryocyte differentiation, flow cytometry; 0.01 mM, 24 h).
With `CC(=O)NCSC[C@H](NC(=O)[C@@H]1CCCN1C(=O)[C@H](C)NC(=O)[C@@H](NC(=O)CNC(=O)[C@@H](NC(=O)[C@H](Cc1c[nH]c2ccccc12)NC(=O)[C@H](C)NC(=O)CNC(=O)[C@H](CO)NC(=O)[C@H](C)NC(=O)[C@@H]1CCCN1C(=O)[C@H](Cc1c[nH]c2ccccc12)NC(=O)[C@H](C)NC(=O)[C@H](C)NC(=O)[C@@H](N)Cc1ccc(O)cc1)[C@@H](C)O)[C@@H](C)O)C(=O)N[C@@H](CO)C(=O)N[C@@H](C)C(=O)NCC(=O)N[C@H](C(=O)NCCOCCOCCOCCOCCOCCOCCOCCOCCOCCOCCOCCOCCC(=O)N[C@@H](CS)C(N)=O)[C@@H](C)O` the selectivity ratio was 3.6 ± 1.3 (H1437 lung adenocarcinoma; cell binding, phage binding, measured: output/input phage; 10 min, 37 °C; reference: control phage).
For `O=C(C[Se]C(=O)c1ccco1)Nc1cccc(C(F)(F)F)c1`, “mean growth percent” read 22.7% (NCI60 colon subpanel; cell growth; 10 µM, 48 h, one-dose).
The GI50 of `Cc1cc(=O)oc2cc(OCCCCCC[Se]C#N)ccc12` is reported as 4 µM (MIA PaCa-2; cell growth or viability, SRB).
With `O=C(C[Se]C(=O)c1cc2ccccc2o1)Nc1cccc(C(F)(F)F)c1` the CC50 was 11.3 µM (NCI60 breast subpanel; NCI60 five-dose screen).
With `C1N2CN3CN1CP(C2)C3.COc1ccc(C([O-])=CC(=O)c2ccc(C(C)(C)C)cc2)cc1.Cc1ccc(C(C)C)cc1.[Ru+2]` the phototoxicity index was 1 (HL-60; reference: dark IC50 over light IC50).
The log LC50 of `CC(C)(C)C(=O)OCOP(=O)(OCOC(=O)C(C)(C)C)C1CCCN(O)C1=O` (stereo not drawn) is reported as > -4 log M (OVCAR-4).
`Cc1cc(Oc2nc(N3CC[C@@H](c4ccncc4)C3)ncc2F)[nH]n1` gave an IC50 of 26.9 µM (SU-DHL-6; cell proliferation; blood cancer).
For `O=[N+]([O-])c1ccc(-n2nc(-c3ccccc3)cc2-c2ccc(F)cc2)c([N+](=O)[O-])c1`, the ROS reduction was ~27% (Neuro2a; H2DCF-DA flow cytometry; 15 µM, 48 h; reference: untreated uninfected cells).
For `CC(=O)OC1C(=O)C2(C)C(O)CC3OCC3(OC(C)=O)C2C(OC(=O)c2cccc(OC(F)(F)F)c2)C2(O)CC(OC(=O)C(O)C(C=C(C)C)NC(=O)OC(C)(C)C)C(C)=C1C2(C)C` (stereo not drawn), the potency ratio was 120 (MCF7/PTX paclitaxel-resistant; cell viability; reference: compound over paclitaxel).
With `CC(C)[C@H](NC(=O)[C@H](CCCNC(=N)N)NC(=O)[C@@H]1CCCN1C(=O)[C@@H](NC(=O)[C@H](C)NC(=O)[C@H](Cc1ccc(O)cc1)NC(=O)[C@H](CCC(N)=O)NC(=O)[C@H](CCCCN)NC(=O)[C@H](CCCNC(=N)N)NC(=O)[C@@H]1CCCN1C(=O)[C@H](CCC(=O)O)NC(=O)[C@@H](NC(=O)[C@H](C)N)[C@@H](C)O)[C@@H](C)O)C(=O)N[C@@H](Cc1ccccc1)C(=O)N[C@@H](Cc1c[nH]c2ccccc12)C(=O)N[C@H](C(=O)N[C@@H](CC(=O)O)C(=O)N[C@@H](C)C(=O)N1CCC[C@H]1C(=O)NCC(=O)NCCOCCOCCOCCOCCOCCOCCOCCOCCOCCOCCOCCOCCC(=O)N[C@@H](CS)C(N)=O)[C@@H](C)O` the selectivity ratio was 4.3 ± 2.6 (H1355 lung adenocarcinoma; cell binding, phage binding, measured: output/input phage; 10 min, 37 °C; reference: control phage).
`CCc1nc2ccc(C(=O)NCCCn3ccnc3)cn2c1N(C)Cc1ccc(N(C)C)cc1`: “transendothelial electrical resistance” “increased” (bEnd.5 monolayer; in vitro blood-brain barrier model; IC50 and 1.5 x IC50, 48 h; reference: untreated).
`CC1CCC2C(C)C(OC(=O)CCC(=O)N3CCC(Nc4ccc(S(=O)(=O)NC(=O)c5ccc(N6CCN(CC7=C(c8ccc(Cl)cc8)CC(C)(C)CC7)CC6)cc5Oc5cnc6[nH]ccc6c5)cc4[N+](=O)[O-])CC3)OC3OC4(C)CCC1C32OO4` (stereo not drawn) — result for “late apoptotic cells”: 31.6% (THP-1; annexin V/PI flow cytometry, measured: annexin V+/PI+; 3.2 µM, 24 h).
`CSCC[C@H](NC(=O)[C@@H](NC(=O)[C@H](CCC(N)=O)NC(=O)[C@H](CO)NC(=O)[C@@H](N)C(C)C)[C@@H](C)O)C(=O)N[C@@H](CCCNC(=N)N)C(=O)N[C@@H](CCC(N)=O)C(=O)N[C@H](C(=O)N[C@@H](C)C(=O)N[C@H](C(=O)N1CCC[C@H]1C(=O)N[C@@H](CC(C)C)C(=O)N[C@@H](CC(C)C)C(=O)N[C@@H](Cc1c[nH]c2ccccc12)C(=O)N[C@@H](Cc1ccccc1)C(=O)N[C@@H](Cc1c[nH]c2ccccc12)C(=O)N[C@H](C(=O)NCC(=O)N[C@@H](CO)C(=O)N[C@@H](CC(C)C)C(=O)NCCOCCOCCOCCOCCOCCOCCOCCOCCOCCOCCOCCOCCC(=O)N[C@@H](CS)C(N)=O)[C@@H](C)O)C(C)C)[C@@H](C)O` has a selectivity ratio of 13 ± 6.9 (HCC2279 lung adenocarcinoma; cell binding, phage binding, measured: output/input phage; 10 min, 37 °C; reference: control phage).
With `CC(C)Cc1ccc(C(C)C(=O)[Se]CC(=O)Nc2cccc(C(F)(F)F)c2)cc1` (stereo not drawn) the CC50 was 6.7 µM (NCI60 CNS subpanel; NCI60 five-dose screen).
The PI-positive cells of `COc1ccc(NC(=O)c2ccc3[nH]c(-c4ccc(N(C)C)cc4)nc3c2)cn1` is reported as 40.9 count and 25.8 count and 17 count (HCT116; IncuCyte; concentration not given, 12 (unit not given)).
With `CC1OC2OC3C4=C(OC3(C)C12O)C(=O)c1c(O)cccc1C4=O` (stereo not drawn) the growth percent was -85.5% (HOP-62; SRB; 10 µg/mL, 48 h; negative values mean cell killing).
Under “glutathione peroxidase activity (OD450)”, `NC(=S)N/N=C/c1ccc(OCc2ccccc2)cc1` is recorded as 0.124 a.u. (IMR-32; measured: GPX3; 300 µg/mL, 24 h; higher = more activity).
Under “mean growth percent”, `O=C(C[Se]C(=O)c1cccs1)Nc1cccc(C(F)(F)F)c1` is recorded as -75.7% (NCI60 breast subpanel; cell growth; 10 µM, 48 h, one-dose).
For `COc1ccccc1-c1ccncc1C(=O)Nc1nnc(OCc2ccc(Cl)cc2)s1`, the colony survival was 82.5% (RPE-1 BRCA1 WT parental; 1 µM, average of 2 runs; reference: untreated).

Some of these lines once more:
For `O=C(C[Se]C(=O)c1ccccc1)Nc1cccc(C(F)(F)F)c1`, the mean TGI was 16.3 µM (NCI60 colon subpanel; NCI60 five-dose screen).
For `CC(=O)OC1C(=O)C2(C)C(O)CC3OCC3(OC(C)=O)C2C(OC(=O)c2cccc(OC(F)(F)F)c2)C2(O)CC(OC(=O)C(O)C(C=C(C)C)NC(=O)OC(C)(C)C)C(C)=C1C2(C)C` (stereo not drawn), the potency ratio was 120 (MCF7/PTX paclitaxel-resistant; cell viability; reference: compound over paclitaxel).
